# Results pooled from the literature.
# Several values in a cell are separate wells, animals, samples, runs or records. ± gives the spread as reported.
Structure (SMILES),target or system,assay,system,conditions,measurement,result
CC[C@H](C)[C@H](NC(=O)[C@@H](Cc1c[nH]c2ccccc12)NC(=O)[C@@H]1CCCN1C(=O)[C@H](CCCCN)NC(=O)[C@H](CCCCN)NC(=O)CCNC(=O)CCNC(=O)CN1CCN(CC(=O)O)CCN(CC(=O)O)CCN(CC(=O)O)CC1)C(=O)N[C@@H](C[Si](C)(C)C)C(=O)O [gallium-68 labelled],,ex vivo biodistribution,"nude mice, HT-29 xenograft, spleen","90 min, together with: levocabastine 0.5 µmol",tissue uptake,0.69 ± 0.04 %ID/g
CC(C)C[C@@H](NC(=O)[C@@H](CCCNC(=N)N)NC(=O)[C@@H](Cc1c[nH]cn1)NC(=O)[C@@H](Cc1c[nH]c2ccccc12)NC(=O)[C@@H](Cc1c[nH]cn1)NC(=O)[C@@H](Cc1ccccc1)NC(=O)[C@H](NC(=O)[C@@H](Cc1ccc(O)cc1)NC(=O)CNC(=O)CNC(=O)CCOCCOCCOCCNC(=O)CN1CCN(CC(=O)O)CCN(CC(=O)O)CC1)[C@H](C)O)C(=O)N[C@H](CC(N)=O)C(=O)N1CCC[C@@H]1C(=O)O [gallium-68 labelled],,gamma counting,"C57BL/6 mice, male, spleen","intravenous, 1.85 MBq, 120 min",tissue uptake,1.76 ± 0.26 %ID/g
Cc1ccc(OCCN(C)C)cc1C(=O)N[C@H](C)c1cc(-c2cnn(C(C)C)c2)nc2ccccc12,Vero E6,,,15.62 µM,viability,83% and 112%
CCCC[C@H]1C(=O)N(C)[C@@H](CCCC)C(=O)N[C@@H](CCCNC(=O)CN2CCN(CC(=O)O)CCN(CC(=O)O)CCN(CC(=O)O)CC2)C(=O)N[C@H](C(=O)NCC(N)=O)CSCC(=O)N[C@@H](Cc2ccc(O)cc2)C(=O)N(C)[C@@H](C)C(=O)N[C@@H](CC(N)=O)C(=O)N2CCC[C@H]2C(=O)N[C@@H](Cc2c[nH]cn2)C(=O)N[C@@H](CC(C)C)C(=O)N(C)CC(=O)N[C@@H](Cc2c[nH]c3ccccc23)C(=O)N[C@@H](CO)C(=O)N[C@@H](Cc2c[nH]c3ccccc23)C(=O)N1C [gallium-68 labelled],,,"NOD/SCID mice, CHO-hPD-L1 xenograft, pancreas","60 min, atezolizumab 10 mg/kg pretreatment",tissue uptake,1.88 ± 0.28 %ID/g
CC[C@H](C)[C@H](NC(=O)[C@H](CCCCN)NC(=O)CNC(=O)[C@H](CC(C)C)NC(=O)[C@H](Cc1ccccc1)NC(=O)[C@H](CCCCN)NC(=O)[C@H](CO)NC(=O)[C@H](Cc1ccccc1)NC(=O)[C@H](Cc1c[nH]c2ccccc12)NC(=O)[C@H](CCC(N)=O)NC(=O)[C@@H](NC(=O)[C@H](Cc1ccccc1)NC(=O)CCCCCNC(=O)CN1CCN(CC(=O)O)CCN(CC(=O)O)CCN(CC(=O)O)CC1)C(C)C)C(=O)N[C@@H](CCC(=O)O)C(=O)N1CCC[C@H]1C(=O)N[C@@H](CC(=O)O)C(=O)N[C@H](C(=O)N[C@@H](CO)C(=O)N[C@@H](CCC(N)=O)C(=O)N[C@H](C(=O)N[C@@H](CCC(N)=O)C(=O)N[C@@H](CC(=O)O)C(=O)N1CCC[C@H]1C(=O)N[C@@H](CC(N)=O)C(=O)N[C@@H](CC(=O)O)C(=O)N[C@@H](CCC(N)=O)C(=O)N[C@@H](Cc1ccc(O)cc1)C(=O)N[C@@H](CCC(=O)O)C(=O)N1CCC[C@H]1C(=O)N[C@@H](Cc1ccccc1)C(=O)O)C(C)C)C(C)C [copper-64 labelled],,,"GZMB-/- mice, CT26 tumour-bearing, pancreas","2 h, checkpoint inhibitor-treated",tissue uptake,0.76 ± 0.1 %ID/g
C[C@H](O)[C@@H](NC(=O)[C@H]1CCCN1C(=O)[C@@H](CCCCN)NC(=O)[C@@H](CO)NC(=O)[C@@H](Cc1ccc(O)cc1)NC(=O)[C@@H](CC(N)=O)NC(=O)CCOCCOCCOCCNC(=O)CN1CCN(CC(=O)O)CCN(CC(=O)O)CCN(CC(=O)O)CC1)C(=O)N[C@H](CC(=O)O)C(=O)N[C@H](CCCNC(=N)N)C(=O)N[C@H](CCC(N)=O)C(=O)N[C@H](Cc1ccc(O)cc1)C(=O)N[C@H](Cc1c[nH]cn1)C(=O)N[C@H](Cc1ccccc1)C(N)=O [copper-64 labelled],,,"C57BL/6J mice, pancreas","intravenous, 1.85 MBq, 1.333 h, radiolabelled",tissue uptake,0.19 ± 0.04 %ID/g
CC[C@H](C)[C@H](NC(=O)[C@H](CCCNC(=N)N)NC(=O)[C@H](CCCCN)NC(=O)[C@H](Cc1ccc(O)cc1)NC(=O)[C@H](CC(=O)O)NC(=O)[C@H](C)NC(=O)CNC(=O)CCOCCOCCOCCNC(=O)CN1CCN(CC(=O)O)CCN(CC(=O)O)CCN(CC(=O)O)CC1)C(=O)N[C@H](C(=O)N[C@@H](CC(C)C)C(=O)N[C@@H](CCCCN)C(=O)N[C@H](C(=O)N[C@@H](CC(N)=O)C(N)=O)C(C)C)[C@@H](C)O [copper-64 labelled],,ex vivo gamma counting,"C57BL/6J male mice, B16-F10 tumour, blood","intravenous, 1.85 MBq, 40 min",tissue uptake,1.06 ± 0.135 %ID/g
CCn1ccc(-c2cc(C(C)NC(=O)c3cc(N4CC5CC4CN5C)ccc3C)c3ccccc3n2)n1 (centres unmarked),Vero E6,,,125 µM,viability,1.34% and 2.88% and 0.96%
CSCC[C@H](NC(=O)CNC(=O)[C@H](CCCCN)NC(=O)[C@H](CC(C)C)NC(=O)[C@@H]1CCCN1C(=O)[C@H](CO)NC(=O)[C@H](Cc1c[nH]cn1)NC(=O)[C@H](Cc1c[nH]c2ccccc12)NC(=O)[C@H](CCCNC(=N)N)NC(=O)[C@H](CC(C)C)NC(=O)[C@H](CCCNC(=N)N)NC(=O)[C@H](Cc1c[nH]c2ccccc12)NC(=O)[C@H](CS)NC(=O)CCCCCNC(=O)CN1CCN(CC(=O)O)CCN(CC(=O)O)CCN(CC(=O)O)CC1)C(=O)O [copper-64 labelled],,ex vivo biodistribution,"male C57BL/6J mice, stomach","intravenous, 1.85 MBq, 18 h, B16-F10 tumour-bearing",tissue uptake,1.2 %ID/g
CC[C@H](C)[C@H](NC(=O)[C@H](CCCNC(=N)N)NC(=O)[C@H](CCCCN)NC(=O)[C@H](Cc1ccc(O)cc1)NC(=O)[C@H](CC(=O)O)NC(=O)[C@H](C)NC(=O)CNC(=O)CCOCCOCCOCCNC(=O)CN1CCN(CC(=O)O)CCN(CC(=O)O)CCN(CC(=O)O)CC1)C(=O)N[C@H](C(=O)N[C@H](C(=O)N[C@@H](CCCCN)C(=O)N[C@H](C(=O)N[C@@H](CC(N)=O)C(N)=O)C(C)C)C(C)C)[C@@H](C)O [copper-64 labelled],,ex vivo gamma counting,"C57BL/6J male mice, B16-F10 tumour, kidney","intravenous, 1.85 MBq, 100 min",tissue uptake,8.96 ± 0.701 %ID/g
O=C1NC2(CC2)COc2ncc(F)cc2[C@H]2COCCN2c2ccn3ncc1c3n2,,,"Sprague-Dawley rat, female, uterus","oral, 5 mg/kg/day, 4 weeks",organ weight,0.474 ± 0.093 g

# For quick reference, copied from above:
Structure (SMILES),target or system,assay,system,conditions,measurement,result
Cc1ccc(OCCN(C)C)cc1C(=O)N[C@H](C)c1cc(-c2cnn(C(C)C)c2)nc2ccccc12,Vero E6,,,15.62 µM,viability,83% and 112%
CSCC[C@H](NC(=O)CNC(=O)[C@H](CCCCN)NC(=O)[C@H](CC(C)C)NC(=O)[C@@H]1CCCN1C(=O)[C@H](CO)NC(=O)[C@H](Cc1c[nH]cn1)NC(=O)[C@H](Cc1c[nH]c2ccccc12)NC(=O)[C@H](CCCNC(=N)N)NC(=O)[C@H](CC(C)C)NC(=O)[C@H](CCCNC(=N)N)NC(=O)[C@H](Cc1c[nH]c2ccccc12)NC(=O)[C@H](CS)NC(=O)CCCCCNC(=O)CN1CCN(CC(=O)O)CCN(CC(=O)O)CCN(CC(=O)O)CC1)C(=O)O [copper-64 labelled],,ex vivo biodistribution,"male C57BL/6J mice, stomach","intravenous, 1.85 MBq, 18 h, B16-F10 tumour-bearing",tissue uptake,1.2 %ID/g
